Results gathered from unrelated publications.
Numbered parts are unrelated; each lists some results of a single study.

Sample 1 — method: aptamer microarray, sandwich; form: DNA with 2'F-ANA; medium: in vitro; tested at: 200 nM; with: Cy3 exosite-II aptamer, 400 nM; direction: higher = stronger binding; sequence: GGTTGGTGTGGTTGG
Target: Prothrombin, mature alpha-thrombin (F2, Homo sapiens, UniProt P00734)
Setting: whole 15-mer aptamer, many near background
Modification | mean fluorescence intensity [a.u.]
2'F-ANA at 3 4 10 11 12 13 15 | 321
2'F-ANA at 2 4 5 6 7 9 10 | 55
2'F-ANA at 5 6 9 10 11 12 13 15 | 53.7
2'F-ANA at 2 3 5 6 9 11 12 13 14 | 57
2'F-ANA at 1 8 13 14 15 | 74.3
2'F-ANA at 1 3 4 5 10 11 12 | 46.8
2'F-ANA at 4 6 14 | 119

Sample 2 — method: protein-binding microarray; form: double-stranded DNA, one strand shown; medium: in vitro; tested at: 2200 nM top; setting: 60-bp whole probe; with: salmon DNA 0.4 mg/ml; relative to: random background probes; direction: higher = stronger binding; shared flanks, not repeated: GCCTAGCAC … GTCTTGATTCGCTTGACGCTGCTG
Target: Interferon regulatory factor 7, full length, phosphomimetic (IRF7, Homo sapiens, UniProt Q92985, residues 1-503, S471D/S472D/S475D/S476D/S477D/S483D/S484D/S487D)
Construct (chain): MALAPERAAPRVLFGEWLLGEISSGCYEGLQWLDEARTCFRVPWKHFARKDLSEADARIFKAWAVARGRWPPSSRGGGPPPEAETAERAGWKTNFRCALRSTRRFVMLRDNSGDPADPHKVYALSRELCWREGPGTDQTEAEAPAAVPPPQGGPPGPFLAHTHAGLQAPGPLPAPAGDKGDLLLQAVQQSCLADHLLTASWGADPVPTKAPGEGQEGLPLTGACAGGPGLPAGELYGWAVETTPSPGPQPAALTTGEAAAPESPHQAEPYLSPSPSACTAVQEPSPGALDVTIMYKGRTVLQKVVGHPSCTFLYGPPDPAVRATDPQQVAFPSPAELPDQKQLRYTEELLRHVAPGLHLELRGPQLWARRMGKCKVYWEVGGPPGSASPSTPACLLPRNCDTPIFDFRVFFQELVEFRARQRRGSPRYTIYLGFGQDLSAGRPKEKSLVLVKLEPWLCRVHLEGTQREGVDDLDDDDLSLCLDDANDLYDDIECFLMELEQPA
Sequence | fitted relative affinity
TTAGGTTTCCGGTTTCGGTTAGTGCTA | 8.85 z-score
ATGATTGGTTGAACATGAACGTGCTAG | 0.52 z-score
GACGGTATCGGGGCTGGGGACGTGCTA | -0.0651 z-score
TTAGGATTGGGGTTTCGGTTAGTGCTA | 3.44 z-score
TCACTTTCCACTTTCTTACTGTGCTAG | 8.73 z-score
TCAAGGATGGTTTTCAGACTGTGCTAG | -0.322 z-score
GACGGTTTCGGACGGGGGACGTGCTAG | 2.64 z-score
TTTTGCTTTCATTTATTTACGTGCTAG | 6.8 z-score
GAGGATTTCAGTATCGAGACGTGCTAG | 0.49 z-score
TTAGGTTTCCGTTTCCTTTAGTGCTAG | 6.72 z-score

Sample 3 — method: RNAcompete; form: RNA; medium: in vitro; tested at: 20 nM; setting: 7-mer, probes averaged, single round; relative to: mean of 7-mers; direction: higher = stronger binding
Target: PABPC1L2, full length, GST fusion (mouse, UniProt A0ABA7IW68)
Construct (chain): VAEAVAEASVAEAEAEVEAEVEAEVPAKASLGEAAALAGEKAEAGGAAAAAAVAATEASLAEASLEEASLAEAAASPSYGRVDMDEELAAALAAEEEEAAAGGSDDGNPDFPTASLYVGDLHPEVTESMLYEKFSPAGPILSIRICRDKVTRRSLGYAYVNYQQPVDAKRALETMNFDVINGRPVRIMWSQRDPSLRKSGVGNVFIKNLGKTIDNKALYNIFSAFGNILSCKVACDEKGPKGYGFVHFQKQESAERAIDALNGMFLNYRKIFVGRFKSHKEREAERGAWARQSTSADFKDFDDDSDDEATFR
Sequence | 7-mer Z-score
GGACUCA | 0.0696
UGCUAUC | -0.333
AGACCGC | -0.262
ACCCAAG | -0.0935
CCGAAAC | 0.0334
AGCCCCA | -0.228
UACAAGC | -0.0409
AAGGGUC | 0.372
CCGUCGG | -0.412
CACGUGA | -0.0917
GAUAAUG | -0.0536
AAUGCAA | 0.283
GGGAACG | 0.305

Other studies, line by line
Molecule | target | assay | test system | setting | scale | endpoint | result
PhoQ, residues 284 288 289 292 302 303 NLALSC | PhoP, residues 12 14 15 18 19 NMSSL (Escherichia coli, UniProt P23836) | Sort-seq, refers to: YFP reporter | E. coli | PhoQ-PhoP variant library, with: 10 µM Mg2+ | relative to: high Mg2+ state, higher = stronger signaling | fold induction | 1.17

Excerpt of the above (sample 3):
Sequence | 7-mer Z-score
CCGAAAC | 0.0334
AGCCCCA | -0.228
UACAAGC | -0.0409
AAGGGUC | 0.372
